Experimental data collected from several papers.
Lines come from different studies, so protocols differ.

| SMILES | assay | test system | conditions | scale | quantity | value |
| --- | --- | --- | --- | --- | --- | --- |
| O=C1CCc2ccc(OCCCCN3CCN(c4cccc(Cl)c4Cl)CC3)cc2N1 | item: Xerostomia | genotyped patients, CYP2D6 ultrarapid metabolizers | dose not given, long-acting oral or depot |  | adverse event incidence | 0% |
| Cc1cc(Nc2ccc(S(F)(F)(F)(F)F)cc2)n2nc(C(C)(F)F)nc2n1 |  | Plasmodium falciparum malaria patients | oral, 400 mg |  | adverse event Nausea | 15.4% |
| FC(F)(F)c1ccc(CNc2ccc(Cc3c[nH]c4ncc(Cl)cc34)cn2)cn1 | item: alanine aminotransferase increased | patients with advanced solid tumours | oral, dose not given, grade 3 and 4, possibly related to drug |  | adverse event incidence | 2% |
| CNC(=O)c1ccc(-c2cnc3ncc(Cc4ccc5ncccc5c4)n3n2)cc1F | phase 1 clinical trial, item: blood bilirubin increased | HCC expansion cohort | oral, 600 mg twice daily, grade 3 or 4 |  | adverse event incidence | 9% |
| NCCONC(=O)[C@@H]1CC[C@@H]2CN1C(=O)N2OS(=O)(=O)O | item: infusion-related reaction | healthy Chinese men | intravenous, 1 g, treatment-emergent |  | adverse event incidence | 0% |
| Cc1c(C(=O)O)ccc2c3n(nc12)[C@@H]1[C@H](C3)N(CC2CC2)[C@@]2(C(=O)Nc3cc(Cl)ccc32)[C@H]1c1cccc(Cl)c1F | phase Ia trial, item: Constipation | cancer patients | oral, dose not given, all patients grade ≥3 |  | adverse event incidence | 0% |
| CC(=O)O[C@H]1C(=O)[C@@]2(C)[C@H]([C@H](OC(=O)c3ccccc3)[C@]3(O)C[C@H](OC(=O)[C@H](O)[C@@H](NC(=O)c4ccccc4)c4ccccc4)C(C)=C1C3(C)C)[C@]1(OC(C)=O)CO[C@@H]1C[C@@H]2O | item: neutropenia | patients with advanced solid tumours | intravenous, dose not given, grade 1 and 2, possibly related to drug |  | adverse event incidence | 20% |
| CC[C@H](C)[C@H](NC(=O)[C@H](Cc1ccccc1)NC(=O)[C@H](CCC(=O)O)NC(=O)[C@H](CCCCNC(=O)COCCOCCNC(=O)COCCOCCNC(=O)CC[C@H](NC(=O)CCCCCCCCCCCCCCCCC(=O)O)C(=O)O)NC(=O)[C@H](C)NC(=O)[C@H](C)NC(=O)[C@H](CCC(N)=O)NC(=O)CNC(=O)[C@H](CCC(=O)O)NC(=O)[C@H](CC(C)C)NC(=O)[C@H](Cc1ccc(O)cc1)NC(=O)[C@H](CO)NC(=O)[C@H](CO)NC(=O)[C@@H](NC(=O)[C@H](CC(=O)O)NC(=O)[C@H](CO)NC(=O)[C@@H](NC(=O)[C@H](Cc1ccccc1)NC(=O)[C@@H](NC(=O)CNC(=O)[C@H](CCC(=O)O)NC(=O)C(C)(C)NC(=O)[C@@H](N)Cc1cnc[nH]1)[C@@H](C)O)[C@@H](C)O)C(C)C)C(=O)N[C@@H](C)C(=O)N[C@@H](Cc1c[nH]c2ccccc12)C(=O)N[C@@H](CC(C)C)C(=O)N[C@H](C(=O)N[C@@H](CCCNC(=N)N)C(=O)NCC(=O)N[C@@H](CCCNC(=N)N)C(=O)NCC(=O)O)C(C)C | item: Mild adverse events | type 2 diabetes patients | dose not given | baseline: subjects | adverse event incidence | 93.3% |
